# Results collected from several papers.
# Every numbered part comes from another study and shows a few of its results, in no order.

# Sample 1
# Target: Interferon regulatory factor 3, full length, phosphomimetic (IRF3, Homo sapiens, UniProt Q14653, residues 1-427, S386D/S396D/S398D/S402D/T404D/S405D)
# UniProt Q14653, sequence (whole entry, unmodified, looked up): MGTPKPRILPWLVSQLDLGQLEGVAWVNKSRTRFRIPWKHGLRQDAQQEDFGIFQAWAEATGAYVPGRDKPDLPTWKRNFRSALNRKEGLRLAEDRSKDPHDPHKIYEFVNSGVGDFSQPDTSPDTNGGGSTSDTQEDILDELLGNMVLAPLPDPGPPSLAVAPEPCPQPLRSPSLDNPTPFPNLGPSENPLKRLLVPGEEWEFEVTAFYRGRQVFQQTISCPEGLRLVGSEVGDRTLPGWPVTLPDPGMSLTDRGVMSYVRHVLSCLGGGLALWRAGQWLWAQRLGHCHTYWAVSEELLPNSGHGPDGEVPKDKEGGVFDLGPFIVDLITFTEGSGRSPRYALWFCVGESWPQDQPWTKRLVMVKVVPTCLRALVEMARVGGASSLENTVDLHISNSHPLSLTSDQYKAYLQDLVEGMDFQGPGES
# Method: protein-binding microarray
# Molecule type: double-stranded DNA, one strand shown
# Medium: in vitro
# Tested at: 2540 nM top
# Setting: 60-bp whole probe
# Added: salmon DNA 0.4 mg/ml
# Reference: random background probes
# Reading: higher = stronger binding
# Shared flanks, not repeated: GCCTAGCAC … GTCTTGATTCGCTTGACGCTGCTG
Sequence,fitted relative affinity [z-score]
GACGATATCAGTCTTGAGACGTGCTAG,1.12
GACGGTTTCCTTATCCTGATGTGCTAG,7.88
TTAGGTATCCTTATCTTTTAGTGCTAG,4.63
ATCAGTTTAATATCTAAGATTGTGCTA,0.837
GACGGTTTCGGGATTGGGGACGTGCTA,4.91

# Sample 2
# Target: RNA binding protein fox-1 homolog 2, RRM domain, GST-SBP tag (RBFOX2, Homo sapiens, UniProt O43251-10, residues 100-194)
# Method: RNA Bind-n-Seq
# Molecule type: RNA
# Medium: in vitro
# Tested at: 365 nM
# Setting: natural RNA segment, single round, ends assumed
# Reference: no-protein control
# Reading: higher = stronger binding
# Target sequence (chain): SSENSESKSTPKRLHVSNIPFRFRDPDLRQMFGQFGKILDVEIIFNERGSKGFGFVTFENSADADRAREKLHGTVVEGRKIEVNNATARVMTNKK
Sequence,RBNS enrichment (R)
GGGAGUUCUACAGUCCGACGAUCCCUUUGGUGCCAACUGGUGUUUGAAAGUAGGGACCUCAGAGGUUUACCUAGAGAACAGGUGGUUUUUAAGGGUUAUCUUAGAUGUUUCACACCGGAAGGUUUUUAAACACUGGAAUUCUCGGGUGCCAA,0.456
GGGAGUUCUACAGUCCGACGAUCUUCAUCCUCCUCCUUUUUUAAAAGUCAACGAGAGCCUUCGCUGACUCCACCGAAGAGGUGCGCCACUGGGAGCCACCCCAGCGCCAGGCGCCCGUCCAGGGACACACACAUGGAAUUCUCGGGUGCCAA,0.24
GGGAGUUCUACAGUCCGACGAUCAGAGACUCAGUUUACCUUAGUGCCUUAGAGGAUGCUAGGUCCUCUGACUGACAUUCCUCAGUGGUCCUCACAGGUGGUUAUAGGGGGGCUGCCUCUCACCUCCGAGCACUUGGAAUUCUCGGGUGCCAA,0.244

# Sample 3
# Target: Histone acetyltransferase KAT6A, both winged helices, GST fusion (KAT6A, Homo sapiens, UniProt Q92794, residues 1-181)
# Method: protein binding microarray
# Molecule type: double-stranded DNA, one strand shown
# Medium: in vitro
# Tested at: not given
# Setting: 8-mer, flanks averaged, mean of 2 arrays, mostly near background
# Reference: not given
# Reading: higher = stronger binding
# Target sequence (chain): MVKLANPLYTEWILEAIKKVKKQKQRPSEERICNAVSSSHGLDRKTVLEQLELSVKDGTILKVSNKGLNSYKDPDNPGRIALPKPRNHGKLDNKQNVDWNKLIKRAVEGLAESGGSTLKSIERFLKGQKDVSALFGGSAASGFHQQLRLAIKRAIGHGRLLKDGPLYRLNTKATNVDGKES
Sequence,E-score
CAGCGGAA,0.198
ATTAACAG,-0.0448
CATACGTA,0.0928
ATCTAAGG,-0.125

# Mixed results
Substance,target,assay,test system,conditions,how to read,endpoint,result
"PhoQ, residues 284 288 289 292 302 303 SASVAL","PhoP, residues 12 14 15 18 19 SQCLL (Escherichia coli, UniProt P23836)","Sort-seq, measured: YFP reporter",E. coli,"PhoQ-PhoP variant library, added: 10 µM Mg2+","reference: high Mg2+ state, higher = stronger signaling",fold induction,20

# Repeated from above (sample 1):
Sequence,fitted relative affinity [z-score]
GACGATATCAGTCTTGAGACGTGCTAG,1.12
GACGGTTTCCTTATCCTGATGTGCTAG,7.88
